# Results from different studies.
# ± marks the error that the study gave.
# Cell line: RAW264.7
Structure (SMILES),test,setting,how to read,quantity,result
COc1ccc(-n2cc(C(=O)N3C[C@]4(OC(=O)c5ccccc5NC(C)=O)CC[C@H](OC)[C@@]56[C@@H]4C[C@@H]([C@@H]35)[C@@]3(O)C[C@H](OC)[C@H]4C[C@@H]6[C@]3(O)[C@H]4OC)nn2)cc1,western blot,"30, 60 or 120 µM, 24 h, added: LPS 1 µg/mL",,p-IkBa/IkBa ratio,decreased
CC(C)OC(=O)[C@H](C)NP(=S)(Oc1ccccc1)c1ccccc1 (stereo partly shown),ELISA,"20, 100, 500 µM, 24 h, added: LPS 1 µg/mL",,IL-1β and IL-6 secretion,inhibited
COC1=C[C@@H]2[C@@H]3Cc4ccc(OC)c(OC(=O)[C@@H]5CCCN5)c4[C@]2(CCN3C)CC1=O,"NO release, inhibitor, Griess",LPS-stimulated,,IC50,52.8 µM
CCCCn1cc(C(=O)O)c(=O)c2cc(F)c3c(nnn3-c3cccc(Cl)c3)c21,"nitric oxide production, Griess","24 h, added: LPS",,IC50,32.2 ± 4.94 µg/mL
CC[C@H](C)[C@H](N)C(=O)Oc1c(OC)ccc2c1[C@@]13CCN(C)[C@@H](C2)[C@H]1C=C(OC)C(=O)C3,"NO release, inhibitor, Griess",LPS-stimulated,,IC50,60.4 µM
CCCCn1cc(C(=O)O)c(=O)c2cc(F)c(Nc3cccc(Cl)c3)c(N)c21,"nitric oxide production, Griess","24 h, added: LPS",,IC50,2.17 ± 0.3 µg/mL
COC1=C[C@@H]2[C@@H]3Cc4ccc(OC)c(OC(=O)[C@H](CC(C)C)NC(=O)OC(C)(C)C)c4[C@]2(CCN3C)CC1=O,"NO release, inhibitor, Griess",LPS-stimulated,,IC50,59.5 µM
C=CCc1ccc(OC(=O)COC(=O)Cn2cnc3c2c(=O)n(C)c(=O)n3C)c(OC)c1,"ELISA, refers to: IL-1β","10 µM, added: LPS",relative to: LPS alone,inhibition,61%
CC(C)C[C@@H](NC(=O)[C@@H](C)NC(=O)[C@@H](CC(C)C)NC(=O)[C@@H](CCCCN)NC(=O)[C@H](N)CCCCN)C(=O)N[C@H](C)C(=O)N[C@H](CC(C)C)C(=O)N[C@H](C)C(=O)N[C@H](CCCCN)C(=O)N[C@H](CCCCN)C(=O)N[C@H](Cc1c[nH]c2ccccc12)C(=O)N[C@H](CC(C)C)C(=O)N[C@H](C)C(=O)N[C@H](CC(C)C)C(=O)N[C@H](C)C(=O)N[C@H](CCCCN)C(=O)N[C@H](CCCCN)C(=O)N[C@H](CC(C)C)C(=O)N[C@H](C)C(=O)N[C@H](CC(C)C)C(=O)N[C@H](C)C(=O)N[C@H](CC(C)C)C(=O)N[C@H](C)C(=O)N[C@H](CCCCN)C(=O)N[C@H](CCCCN)C(N)=O,"cytotoxicity, MTT","four hours, 37 °C, serum-free medium",,EC50,7.31 ± 2.13 µM
Cc1ccc(C(C)C)c(OC(=O)COC(=O)Cn2cnc3c2c(=O)n(C)c(=O)n3C)c1,"NO release, inhibitor, Griess","25 µM, LPS-stimulated",,inhibition,74%
CC(C)C[C@@H](NC(=O)[C@@H](C)NC(=O)[C@@H](CCCCN)NC(=O)[C@H](N)CCCCN)C(=O)N[C@H](C)C(=O)N[C@H](Cc1c[nH]cn1)C(=O)N[C@H](C)C(=O)N[C@H](CC(C)C)C(=O)N[C@H](CCCCN)C(=O)N[C@H](CCCCN)C(=O)N[C@H](Cc1c[nH]c2ccccc12)C(=O)N[C@H](CC(C)C)C(=O)N1CCC[C@@H]1C(=O)N[C@H](C)C(=O)N[C@H](CC(C)C)C(=O)N[C@H](CCCCN)C(=O)N[C@H](CCCCN)C(=O)N[C@H](CC(C)C)C(=O)N[C@H](C)C(=O)N[C@H](Cc1c[nH]cn1)C(=O)N[C@H](C)C(=O)N[C@H](CC(C)C)C(=O)N[C@H](C)C(=O)N[C@H](CCCCN)C(=O)N[C@H](CCCCN)C(N)=O,"cytotoxicity, MTT","four hours, 37 °C, serum-free medium",,EC50,2.33 ± 0.3 µM
Cn1c(=O)c2c(ncn2CC(=O)N/N=C/C=Cc2ccccc2)n(C)c1=O,"NO release, inhibitor, Griess","25 µM, LPS-stimulated",,inhibition,65.4%
CC(C)C[C@@H](NC(=O)[C@@H](C)NC(=O)[C@@H](CC(C)C)NC(=O)[C@@H](CCCCN)NC(=O)[C@@H](CCCCN)NC(=O)[C@@H](CC(C)C)NC(=O)[C@@H](C)NC(=O)[C@H]1CCCN1C(=O)[C@@H](CC(C)C)NC(=O)[C@@H](Cc1c[nH]c2ccccc12)NC(=O)[C@@H](CCCCN)NC(=O)[C@@H](CCCCN)NC(=O)[C@@H](CC(C)C)NC(=O)[C@@H](C)NC(=O)[C@@H](CC(C)C)NC(=O)[C@@H](CC(C)C)NC(=O)[C@@H](C)NC(=O)[C@@H](CC(C)C)NC(=O)[C@@H](CCCCN)NC(=O)[C@H](N)CCCCN)C(=O)N[C@H](CC(C)C)C(=O)N[C@H](C)C(=O)N[C@H](CC(C)C)C(=O)N[C@H](CCCCN)C(=O)N[C@H](CCCCN)C(N)=O,"cytotoxicity, MTT","four hours, 37 °C, serum-free medium",,EC50,3.8 ± 0.34 µM
COC1=C[C@@H]2[C@@H]3Cc4ccc(OC)c(OC(=O)[C@@H](N)Cc5ccccc5)c4[C@]2(CCN3C)CC1=O,"NO release, inhibitor, Griess",LPS-stimulated,,IC50,72.3 µM
Cc1ccc(C(C)C)c(OC(=O)CSc2nnc(Cn3cnc4c3c(=O)n(C)c(=O)n4C)o2)c1,"NO release, inhibitor, Griess","25 µM, LPS-stimulated",,inhibition,92.8%
COC1=C[C@@H]2[C@@H]3Cc4ccc(OC)c(OC(=O)CN(C)C(=O)OC(C)(C)C)c4[C@]2(CCN3C)CC1=O,"NO release, inhibitor, Griess",LPS-stimulated,,IC50,59.3 µM
CCCCn1cc(C(=O)O)c(=O)c2cc(F)c3c(nnn3-c3ccccc3Cl)c21,"nitric oxide production, Griess","24 h, added: LPS",,IC50,34.9 ± 2.06 µg/mL
C=CCc1ccc(OC(=O)CSc2nnc(Cn3cnc4c3c(=O)n(C)c(=O)n4C)o2)c(OC)c1,"NO release, inhibitor, Griess","25 µM, LPS-stimulated",,inhibition,93.2%
COC1=C[C@@H]2[C@@H]3Cc4ccc(OC)c(OC(=O)CNC(=O)OC(C)(C)C)c4[C@]2(CCN3C)CC1=O,"NO release, inhibitor, Griess",LPS-stimulated,,IC50,42.3 µM

# For quick reference, copied from above:
Structure (SMILES),test,setting,how to read,quantity,result
CC(C)OC(=O)[C@H](C)NP(=S)(Oc1ccccc1)c1ccccc1 (stereo partly shown),ELISA,"20, 100, 500 µM, 24 h, added: LPS 1 µg/mL",,IL-1β and IL-6 secretion,inhibited
CCCCn1cc(C(=O)O)c(=O)c2cc(F)c(Nc3cccc(Cl)c3)c(N)c21,"nitric oxide production, Griess","24 h, added: LPS",,IC50,2.17 ± 0.3 µg/mL
CC(C)C[C@@H](NC(=O)[C@@H](C)NC(=O)[C@@H](CC(C)C)NC(=O)[C@@H](CCCCN)NC(=O)[C@H](N)CCCCN)C(=O)N[C@H](C)C(=O)N[C@H](CC(C)C)C(=O)N[C@H](C)C(=O)N[C@H](CCCCN)C(=O)N[C@H](CCCCN)C(=O)N[C@H](Cc1c[nH]c2ccccc12)C(=O)N[C@H](CC(C)C)C(=O)N[C@H](C)C(=O)N[C@H](CC(C)C)C(=O)N[C@H](C)C(=O)N[C@H](CCCCN)C(=O)N[C@H](CCCCN)C(=O)N[C@H](CC(C)C)C(=O)N[C@H](C)C(=O)N[C@H](CC(C)C)C(=O)N[C@H](C)C(=O)N[C@H](CC(C)C)C(=O)N[C@H](C)C(=O)N[C@H](CCCCN)C(=O)N[C@H](CCCCN)C(N)=O,"cytotoxicity, MTT","four hours, 37 °C, serum-free medium",,EC50,7.31 ± 2.13 µM
